# Measured values pooled from the literature.
# Numbered parts are unrelated; each lists some results of a single study.

# Sample 1
# Cell line: yeast with cyclin B3-Cln2 chimera
# Read-out: cell growth
# Mode: binder
# Technique: competitive growth deep sequencing
# Form: peptide
# Tested at: concentration not given
# Notes: peptide tiling library
# Reading: direction not given
Molecule,growth enrichment score
DWDTVERQEEEAPSWD,0.456
GTPKRCLDLSNLSSGE,-0.324
IFNKPECGRVQRAIFQ,-1.41
ASVLSKPIFCFVKD,0.547
PKRAKRKLYTSEISSP,-0.968
SNFFDVIKQLFSDEKN,1.51
TSSAQRRLEIPSGGAD,0.648
PKNAKRNLSSEFAN,0.403
TQERKQIHCLSEDELS,0.292

# Sample 2
# Target: Prothrombin, mature alpha-thrombin (F2, Homo sapiens, UniProt P00734)
# Technique: aptamer microarray, sandwich
# Form: DNA with 2'F-ANA
# Medium: in vitro
# Tested at: 200 nM
# Notes: whole 15-mer aptamer, many near background
# Together with: Cy3 exosite-II aptamer, 400 nM
# Reading: higher = stronger binding
# Strand: GGTTGGTGTGGTTGG
Modification,mean fluorescence intensity
2'F-ANA at 2 3 6 7,832 a.u.
2'F-ANA at 2 3 5 8 10 12 14,50.9 a.u.
2'F-ANA at 1 2 3 8 9 10 14,54 a.u.
2'F-ANA at 1 2 3 6 11 13,210 a.u.
2'F-ANA at 6 10 11 13 14 15,86.9 a.u.
2'F-ANA at 1 7 8 10 14,68.1 a.u.
2'F-ANA at 7 9 11 14 15,174 a.u.
2'F-ANA at 2 5 6 8 10 11 12 14 15,49.9 a.u.
2'F-ANA at 4 5 7 9 10 11 12 14 15,47.3 a.u.
2'F-ANA at 4 5 6 9 11 12 15,91.6 a.u.
2'F-ANA at 1 3 5 13 15,52.4 a.u.
2'F-ANA at 2 7 9 13 14 15,128 a.u.
2'F-ANA at 2 4 5 7 9 10 11 12 14 15,45 a.u.
2'F-ANA at 2 3 4 8 9 10 11,240 a.u.
2'F-ANA at 1 2 3 4 5 10 11 13,53.4 a.u.
2'F-ANA at 1 2 3 9 11,237 a.u.
2'F-ANA at 2 3 6 7 8 9 12 13 14 15,340 a.u.
2'F-ANA at 1 4 9 10 11 12 13,50.8 a.u.
2'F-ANA at 1 6 7 9 10 12 14,96.2 a.u.
2'F-ANA at 1 4 5 7 9 10 12 14,280 a.u.
2'F-ANA at 1 3 6 9 10 13 14,59.3 a.u.
2'F-ANA at 1 2 3 9 11 15,170 a.u.
2'F-ANA at 1 2 4 5 6 7 8 11 15,53.9 a.u.

# Sample 3
# Target: Sal-like protein 4, full length isoform A (SALL4, Homo sapiens, UniProt Q9UJQ4, residues 1-1053)
# Sequence of UniProt Q9UJQ4 (whole entry, looked up): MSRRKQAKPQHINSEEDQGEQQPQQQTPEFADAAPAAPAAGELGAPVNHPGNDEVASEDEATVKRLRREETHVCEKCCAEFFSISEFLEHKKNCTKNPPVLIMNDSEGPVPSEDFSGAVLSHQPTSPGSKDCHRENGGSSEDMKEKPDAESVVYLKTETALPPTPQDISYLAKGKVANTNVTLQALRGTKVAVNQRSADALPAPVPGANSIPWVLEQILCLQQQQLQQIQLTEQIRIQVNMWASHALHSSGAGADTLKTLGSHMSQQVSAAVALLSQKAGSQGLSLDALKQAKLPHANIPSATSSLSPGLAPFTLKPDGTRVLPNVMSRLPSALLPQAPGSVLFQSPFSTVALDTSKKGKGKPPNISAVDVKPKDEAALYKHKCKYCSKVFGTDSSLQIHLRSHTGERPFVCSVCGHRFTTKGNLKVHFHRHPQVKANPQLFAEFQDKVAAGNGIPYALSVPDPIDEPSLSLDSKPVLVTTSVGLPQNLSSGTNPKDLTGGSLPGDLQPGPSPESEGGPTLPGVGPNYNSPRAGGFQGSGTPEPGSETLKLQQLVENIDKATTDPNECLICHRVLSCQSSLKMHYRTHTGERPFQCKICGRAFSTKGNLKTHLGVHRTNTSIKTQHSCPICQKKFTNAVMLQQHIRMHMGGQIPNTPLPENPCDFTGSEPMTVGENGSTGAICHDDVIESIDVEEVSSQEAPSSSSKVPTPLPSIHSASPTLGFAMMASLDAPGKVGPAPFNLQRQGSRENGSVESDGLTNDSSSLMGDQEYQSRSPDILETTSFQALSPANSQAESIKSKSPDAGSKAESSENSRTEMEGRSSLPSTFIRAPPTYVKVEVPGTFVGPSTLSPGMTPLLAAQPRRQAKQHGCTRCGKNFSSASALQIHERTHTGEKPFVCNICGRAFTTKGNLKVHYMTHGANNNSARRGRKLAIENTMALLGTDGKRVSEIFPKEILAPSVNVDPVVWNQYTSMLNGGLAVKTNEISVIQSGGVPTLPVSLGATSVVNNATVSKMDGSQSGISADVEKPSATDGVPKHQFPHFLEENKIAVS
# Technique: universal PBM
# Form: double-stranded DNA, one strand shown
# Medium: in vitro
# Tested at: 600 nM
# Notes: 8-mer, flanks averaged, mean of replicates
# Reading: higher = stronger binding
Strand,E-score
GCTTTTAA,0.0708
CGACTTTA,0.165
AATGAAAC,0.225
CCAATGAG,-0.16
AACCTTCA,0.127
ATCGTAAT,0.254
AATACTAC,0.247
TTCCCAAA,0.219
GCCACGCC,-0.34
GGTCTGCA,-0.16
CACCTCTC,-0.0834
CTAACCCA,-0.0955
CATGCATG,0.108
CCACGTTC,-0.245
GGACCGCA,-0.267
CGGCCCTA,-0.226
GAGTACAA,0.136
CCAGTGCG,-0.304
GGAAGGGA,-0.193
GTAACCCA,0.0875
GCACGGCA,-0.142
AAGTGAAT,0.19
ACGGTCCT,-0.279
AATACGGC,-0.0551

# Sample 4
# Target: RING finger protein unkempt homolog, zinc fingers 1-6, SBP tag (UNK, Homo sapiens, UniProt Q9C0B0, residues 30-357)
# Sequence of UniProt Q9C0B0 (30-357, looked up): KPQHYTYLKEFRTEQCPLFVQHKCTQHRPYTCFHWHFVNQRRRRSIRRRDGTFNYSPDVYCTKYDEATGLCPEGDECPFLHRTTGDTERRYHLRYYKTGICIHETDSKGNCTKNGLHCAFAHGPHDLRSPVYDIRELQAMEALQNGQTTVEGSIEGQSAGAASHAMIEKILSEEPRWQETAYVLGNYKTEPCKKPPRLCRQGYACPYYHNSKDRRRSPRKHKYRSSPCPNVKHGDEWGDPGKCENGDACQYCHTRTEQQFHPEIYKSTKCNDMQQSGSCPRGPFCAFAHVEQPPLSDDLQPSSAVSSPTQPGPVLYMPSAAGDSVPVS
# Technique: RNA Bind-n-Seq
# Form: RNA
# Medium: in vitro
# Tested at: 100 nM
# Notes: RNA with constant flanks, vertebrate orthologous sites, ends assumed
# Reference: input RNA pool
# Reading: higher = stronger binding
# Constant ends, left off below: GGGAGUUCUACAGUCCGACGAUC … CAACAGAGGAUUGAGCAUCA
Strand,bound/input enrichment
GUCAUCUGACUGGAUGAAGACUGUUCCAAGUUAUAACCAAACAAAUAGCUCCAUGGACUUUAGAAAUUAUAUGAUGAGAGAUGAAAAUUUGGAACCACUGCCCAAAAACUGGGAAAUGGC,1.67 ratio
AAUGUGGCUUUUGCUUCAUUAAGAGUAAAAAAAUAGCCCCCUCAAUUUAAAAUGUCUAAAUAGCUAUUUUAAAAAUCAAAAUGUUUAAAUUUUGUAAAUCACCUGAUGUCAGUACACACC,0.362 ratio
UCCUGAACGUCUAGCUUUCACAUGAUGGCUGUUCUAGAUACUGGUUUUUCUUUUGAAAACUCCUCCGGUUCCCAUCUUCUCCUUCCUGGUUCCUAAGGUUUGACUCAUGGAUUUUACUCG,0.645 ratio
AUAUUGGAUGUAGUGUAAAAUUAUCCAAGGCAGUGACUUCAGCUUCAUAUAUAUAUAAUAUAGUUAGUUUUAAAGCUAUUGACGUUUAUUUAAACUUUUAGAUGGGACUGUUUGCUAUUU,1.07 ratio
UGGAAGUAUUUAUACUGGCCAAACAUUUUUUACUUAUUUUGAUCCCCCCCUUUUUUUUGGUAGUUCUUGUUACCCACACCAUUUUAUGUCUCCUUCACUGAAGGGCUAGAGUUUUAAGUU,0.781 ratio
UUUGUGGGGAUCGGGGGGUGGGAAGAAGAUGUAUGGAUGUUACUGGCAUUUUUAAGUCUUCAGAGUUUUUCUGUGUUUUUUUUCCCCCCUUCUGUUUUGUCCUUUGCCUUUAAUUAGGUG,0.228 ratio
UACUUUUUUGUUAUUCCUUUAUGUCUUUCUACCUUGUUUUUUCUUUGUUUCUUUUUUUUGGUAGUUGUUGUUACCACACCAUUUUAUGUCUCCUUCACUGAAGGGCUAGAGUUUUAACUU,1.22 ratio
UUAAUGAUCAUAUUGUAUGUAGAGAAAAAUUUUCAUUGUGGAAUUCCCUAGCAAUUUAUUUAGACUUCAUUUUUAAAAUUCAAGCUUACUGUAUUAGGCAUUUUUAGCUCAUAAUUAAAA,6.66 ratio

# Repeated from above (sample 1):
Molecule,growth enrichment score
TQERKQIHCLSEDELS,0.292
IFNKPECGRVQRAIFQ,-1.41
GTPKRCLDLSNLSSGE,-0.324
ASVLSKPIFCFVKD,0.547
DWDTVERQEEEAPSWD,0.456
PKNAKRNLSSEFAN,0.403
SNFFDVIKQLFSDEKN,1.51
PKRAKRKLYTSEISSP,-0.968
TSSAQRRLEIPSGGAD,0.648
